# Assay results collected from several papers.
# Numbered parts are unrelated; each lists some results of a single study. Positions count from the first letter of the parent shown.
# Sequence of UniProt P28566 (whole entry, looked up): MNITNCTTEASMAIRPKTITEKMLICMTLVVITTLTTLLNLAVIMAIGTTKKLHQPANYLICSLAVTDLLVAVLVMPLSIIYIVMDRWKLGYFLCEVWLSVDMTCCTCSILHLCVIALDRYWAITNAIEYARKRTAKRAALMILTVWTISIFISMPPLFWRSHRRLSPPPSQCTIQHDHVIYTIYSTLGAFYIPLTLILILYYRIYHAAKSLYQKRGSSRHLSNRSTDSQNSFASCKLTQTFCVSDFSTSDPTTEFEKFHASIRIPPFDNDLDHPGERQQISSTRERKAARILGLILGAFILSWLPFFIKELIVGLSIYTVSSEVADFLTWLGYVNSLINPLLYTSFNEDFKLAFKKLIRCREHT
# Sequence of UniProt Q9UQM7 (whole entry, looked up): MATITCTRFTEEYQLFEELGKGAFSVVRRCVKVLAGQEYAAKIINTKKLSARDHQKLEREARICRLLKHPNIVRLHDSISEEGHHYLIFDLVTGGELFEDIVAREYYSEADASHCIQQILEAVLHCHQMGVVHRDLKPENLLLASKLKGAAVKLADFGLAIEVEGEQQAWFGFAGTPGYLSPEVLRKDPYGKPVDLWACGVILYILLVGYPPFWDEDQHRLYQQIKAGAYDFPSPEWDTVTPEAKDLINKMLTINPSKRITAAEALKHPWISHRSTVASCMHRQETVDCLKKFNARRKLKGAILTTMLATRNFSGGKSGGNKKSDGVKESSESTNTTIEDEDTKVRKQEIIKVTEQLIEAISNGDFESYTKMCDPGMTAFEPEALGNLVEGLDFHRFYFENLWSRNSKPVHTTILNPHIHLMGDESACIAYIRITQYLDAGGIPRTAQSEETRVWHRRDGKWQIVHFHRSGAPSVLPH

# Block 1
# Target: UDP-N-acetylglucosamine--peptide N-acetylglucosaminyltransferase 110 kDa subunit (OGT, Homo sapiens, UniProt O15294)
# Sequence of UniProt O15294 (whole entry, looked up): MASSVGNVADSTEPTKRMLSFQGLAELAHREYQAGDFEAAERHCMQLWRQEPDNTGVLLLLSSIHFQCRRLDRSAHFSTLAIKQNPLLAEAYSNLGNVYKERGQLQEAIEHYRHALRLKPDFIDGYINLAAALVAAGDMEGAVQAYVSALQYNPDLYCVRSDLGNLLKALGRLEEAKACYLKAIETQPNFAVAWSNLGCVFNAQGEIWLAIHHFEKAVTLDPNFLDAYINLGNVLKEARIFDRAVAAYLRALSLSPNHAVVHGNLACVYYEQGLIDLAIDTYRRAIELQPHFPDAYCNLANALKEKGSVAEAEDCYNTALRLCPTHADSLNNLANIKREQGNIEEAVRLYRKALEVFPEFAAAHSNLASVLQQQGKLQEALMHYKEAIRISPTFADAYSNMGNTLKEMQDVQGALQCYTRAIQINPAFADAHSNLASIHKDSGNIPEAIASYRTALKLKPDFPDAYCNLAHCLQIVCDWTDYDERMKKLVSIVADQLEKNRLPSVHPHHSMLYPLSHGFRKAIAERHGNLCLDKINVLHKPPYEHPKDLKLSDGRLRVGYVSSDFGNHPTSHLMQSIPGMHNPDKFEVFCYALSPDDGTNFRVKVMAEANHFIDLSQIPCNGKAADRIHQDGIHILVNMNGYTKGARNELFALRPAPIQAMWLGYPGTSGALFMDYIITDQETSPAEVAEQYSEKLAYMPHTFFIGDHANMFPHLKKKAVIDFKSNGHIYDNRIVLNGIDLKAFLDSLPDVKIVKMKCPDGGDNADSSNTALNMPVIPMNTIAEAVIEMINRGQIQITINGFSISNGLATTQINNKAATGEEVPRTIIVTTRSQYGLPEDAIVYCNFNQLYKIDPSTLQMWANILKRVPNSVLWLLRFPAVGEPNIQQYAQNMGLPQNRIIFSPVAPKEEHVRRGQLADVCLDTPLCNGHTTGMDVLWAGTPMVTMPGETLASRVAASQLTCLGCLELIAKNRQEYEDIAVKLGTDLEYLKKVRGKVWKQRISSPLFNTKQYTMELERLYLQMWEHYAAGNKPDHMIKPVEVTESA
# Effect on: binding
# Method: phage display NGS
# Form: peptide
# Reference: input library
Molecule,minimum log2 enrichment ratio
HNFFEYHTANRHQHF,3.28
HVRWHHSDAPYWTDI,2.45
MEEYLPQYTIEVVPI,1.38
HQIEWHHTSSNYFH,2.01
NRYTETRHMHQVHHS,2.51
VMGTPQYLPHYQIDV,3.88
IVTGRHPHTTQHYTH,2.41
SHKPHRASMPSALQF,1.24

# Block 2
# Target: inorganic phosphate, free oxyanion
# Method: microfluidic competitive inhibition
# Matrix: in vitro, cell-free expressed
# Concentration: not given
# Notes: derived from inhibition constants, unchanged parent 615000 nM
# Reading: lower = stronger binding
# Starting sequence: PafA, mature enzyme, eGFP fusion (Elizabethkingia meningoseptica, UniProt Q9KJX5); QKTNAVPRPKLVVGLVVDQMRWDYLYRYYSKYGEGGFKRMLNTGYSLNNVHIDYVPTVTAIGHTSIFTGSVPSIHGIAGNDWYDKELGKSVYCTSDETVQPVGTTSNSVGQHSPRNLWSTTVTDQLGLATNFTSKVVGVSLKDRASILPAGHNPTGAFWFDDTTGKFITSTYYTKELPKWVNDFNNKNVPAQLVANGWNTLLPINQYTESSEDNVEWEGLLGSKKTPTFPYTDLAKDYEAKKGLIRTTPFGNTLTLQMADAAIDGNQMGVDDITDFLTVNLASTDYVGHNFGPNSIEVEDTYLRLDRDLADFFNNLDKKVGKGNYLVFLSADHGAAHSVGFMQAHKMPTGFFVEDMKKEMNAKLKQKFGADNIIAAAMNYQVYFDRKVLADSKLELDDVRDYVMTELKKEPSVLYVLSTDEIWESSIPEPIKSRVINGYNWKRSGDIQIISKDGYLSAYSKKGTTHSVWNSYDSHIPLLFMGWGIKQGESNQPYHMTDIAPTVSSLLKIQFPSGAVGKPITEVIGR
Change,phosphate dissociation constant [µM]
E176G,544
G321V,610
D233G,534
G482A,551
T226G,526
D264G,581
P477G,566
F384G,527

# Single results of other studies
SMILES,target or system,assay,conditions,how to read,quantity,result
CNC(=N)NCCC[C@H](NC(=O)[C@H](CC(C)C)NC(=O)NNC(=O)[C@H](Cc1ccccc1)NC(=O)[C@H](CO)NC(=O)[C@H](CC(N)=O)NC(=O)[C@@H](Cc1cccnc1)NC(=O)[C@H](N)Cc1ccc(O)cc1)C(=O)NCC(N)=O,"HTR1E (Homo sapiens, UniProt P28566)","ligand displacement, radioligand",10 µM,,inhibition,27.9%
CC(=O)C=Cc1ccccc1,"CAMK2A (Homo sapiens, UniProt Q9UQM7)","enzyme activity, inhibitor",10 µM,,inhibition,-28%
O=C(O)c1cc(-c2ccc(C3CCNCC3)cc2)c2ccc(-c3ccc(C(F)(F)F)cc3)cc2c1,"CRK2 (Plasmodium falciparum, UniProt P61075)","cell-free assay, competition with immobilised ligand",1 µM,,remaining binding,100%
N#Cc1c(N)nc(SCC(N)=O)c(C#N)c1-c1ccc(OCC2CC2)cc1,mouse MPNST tumor cells,"high-content nuclear imaging, item: cell number","10 µM, 12 h, mean of 2 replicates","reference: plate mean, higher = more cells",nuclei count,-1.64 z-score

# Excerpt of the above (block 2):
Change,phosphate dissociation constant [µM]
P477G,566
